Assay results pooled from the literature.
Lines come from different studies, so protocols differ.
Cell line: DU-145

| SMILES | test | setting | scale | quantity | result |
| --- | --- | --- | --- | --- | --- |
| CC(=O)OC[C@H]1O[C@@H](Sc2sc(C(=O)c3ccc(Br)cc3)c(N)c2-c2nc3ccccc3s2)[C@H](OC(C)=O)[C@@H](OC(C)=O)[C@H]1OC(C)=O | SRB | 10 µM, 48 h | baseline: untreated | growth | 110% |
| COc1cc(CNC(=O)C[C@H](C)CCC=C(C)C)ccc1OCc1cn(-c2ccc(F)cc2)nn1 | SRB | 10 µM, 48 h | – | growth percent | 93.1% |
| CC(Cc1ccc(Cl)cc1)=C(c1ccc(Cl)cc1)c1ccc(OCCN(C)C)cc1 | cell growth or viability | – | – | GI50 | 4740 nM |
| CC(=O)c1cccc(NC2C(N)C(NC(=O)N(C)C)(C(C)O)C(O)C2(O)COC(=O)c2c(C)cccc2O)c1 (stereo not shown) | cell growth or viability, SRB | – | – | GI50 | 150 nM |
| CC1=CCC23OC2(C)CCC2C(CN(C)C)C(=O)OC2C13.Cl (stereo not shown) | cell growth or viability, SRB | 8.3 µM | – | inhibition | 57.3% |
| CC(=C(c1ccc(O)cc1)c1ccc(Cl)cc1)c1ccc(Cl)cc1 | cell growth or viability | – | – | GI50 | 1100 nM |
| COc1cc(CNC(=O)C[C@H](C)CCC=C(C)C)ccc1O | SRB | 10 µM, 48 h | – | growth percent | 103% |
| C[N+]1(CC(=O)OC2CCCCCCCCCCC2)CCCCC1 | cell viability, CellTiter Blue | 96 h | – | ED50 | 6.2 µM |
| COc1cc(CNC(=O)C[C@H](C)CCC=C(C)C)ccc1OCc1cn(-c2ccccc2)nn1 | SRB | 10 µM, 48 h | – | growth percent | 92.1% |
| CC/C=C\C/C=C\C/C=C\C/C=C\C/C=C\C/C=C\CCC(=O)Nc1ccn(C2OC(CO)C(O)C2(F)F)c(=O)n1 (stereo not shown) | NCI60 screen | – | – | TGI | 12.5 µM |
| COc1cc(CNC(=O)C[C@H](C)CCC=C(C)C)ccc1OCc1cn(-c2ccc(Cl)c(Cl)c2)nn1 | SRB | 10 µM, 48 h | – | growth percent | 76.8% |
| CC(=O)OC[C@H]1O[C@@H](Sc2sc(C(=O)c3ccc(C)cc3)c(N)c2-c2nc3ccccc3s2)[C@H](OC(C)=O)[C@@H](OC(C)=O)[C@H]1OC(C)=O | SRB | 10 µM, 48 h | baseline: untreated | growth | 107% |
| COc1ccc2c(c1)/C(=N\Nc1nnc3n1N=C(c1ccccc1)CS3)C(=O)N2 | cell growth or viability, SRB | 10 µM | – | inhibition | 50% |

Repeated from above:
| SMILES | test | setting | scale | quantity | result |
| --- | --- | --- | --- | --- | --- |
| COc1cc(CNC(=O)C[C@H](C)CCC=C(C)C)ccc1OCc1cn(-c2ccc(Cl)c(Cl)c2)nn1 | SRB | 10 µM, 48 h | – | growth percent | 76.8% |
| COc1ccc2c(c1)/C(=N\Nc1nnc3n1N=C(c1ccccc1)CS3)C(=O)N2 | cell growth or viability, SRB | 10 µM | – | inhibition | 50% |
